# Measured values pooled from the literature.
# Compare with care: the assays were run in different laboratories. Values joined by “and” are separate records of one study, mostly repeats; a detail may differ. ± gives the spread as reported.
Compound,cell line,test,conditions,how to read,endpoint,result
N#Cc1ccc(COC[C@H]2O[C@@H](n3c(NCc4ccc(Cl)c(Cl)c4)nc4c(N)ncnc43)[C@H](O)[C@@H]2O)cc1,HD-MB03,,"concentration not given, with: ribociclib NG",relative to: ribociclib over DMSO,fold change in IC50,1.82
CCOC(=O)C1CCN(C(=O)c2ccc(N(CC)Cc3cnc4nc(N)nc(N)c4n3)cc2)CC1,786-O,"high-content imaging, item: MitoTracker Red uptake",10 µM,,mitochondrial toxicity,14.5 ± 9.52%
CC1=CC[C@H]2[C@@H]([C@@H]1CC[C@H]1[C@]3(C)CC[C@H](O)C(C)(C)O[C@H]3CC[C@]1(C)O)C(C)(C)CC[C@]2(C)O,KB-C2 (P-gp overexpressing),drug efflux,"10 µM, 30 min",,intracellular [3H]-paclitaxel remaining,81.6%
Cc1cccc(-c2[nH]c(CNc3ccccc3F)nc2-c2ccc3ncnn3c2)n1,MM1.S pomalidomide-resistant,XTT,0.5 µM,,viability,101% and 96% and 97%
CC(C)(c1ccc(O)cc1)c1ccc(O)cc1,HepG2 spheroids,Hoechst flow cytometry,"1 µM, 24 h",,S phase cells,7.93 ± 1.55%
O=c1[nH]nc(OCCCc2ccc(Cl)cc2)c(NCc2cccnc2)c1Br,HEK293T,"RNA-seq, item: HSPB1 mRNA","10 µM, 6 h",relative to: vehicle,log2 fold change,-0.375
CCC(C)n1ncn(-c2ccc(N3CCN(c4ccc(OCC5COC(Cn6cncn6)(c6ccc(Cl)cc6Cl)O5)cc4)CC3)cc2)c1=O (centres unmarked),HD-MB03,cell growth,"168 h, single agent",,IC50,684 nM
Cc1nn(-c2nc3c(F)cc(F)cc3s2)c(O)c1C(c1ccc(C(F)(F)F)cc1)c1c(C)nn(-c2nc3c(F)cc(F)cc3s2)c1O,THP1-Dual,western blot,"20 µM, dose series, with: HT-DNA",relative to: DMSO,phospho-TBK1 to TBK1 ratio,0.54 and 0.645 and 0.619
Cc1cc(Nc2ncc(Cl)c(Nc3ccccc3S(=O)(=O)C(C)C)n2)c(OC(C)C)cc1C1CCNCC1,CLB-GE,"phosphoproteomics LC-MS/MS, item: HELZ phosphorylation","200 nM, 60 min",relative to: untreated,log2 fold change,-1.59
CN(C)C(=O)c1cc2cnc(Nc3ccc(N4CCNCC4)cn3)nc2n1C1CCCC1,HD-MB03,cell growth,"168 h, DMSO",,IC50,3570 nM
Cn1c(Nc2nc3ccc(C(F)(F)F)cc3s2)nc2cc(C(=O)NCCOCCO)ccc21,SH-SY5Y,"RNA-seq, item: FAM30A mRNA","5 µM, 5 h",relative to: untreated cells,fold change,2.7
c1ccc2[nH]ccc2c1,HCT-8,"RNA-seq, item: SLC6A9",concentration not given,,"mRNA level, LS mean",43.5 counts per million
O=C(NC[C@H](O)CO)c1ccncc1Nc1ccc(I)cc1F,HD-MB03,cell growth,"168 h, DMSO",,IC50,837 nM
C[C@H](NC(=O)C(=O)Nc1ccccc1C(C)(C)C)C(=O)N[C@@H](CC(=O)O)C(=O)COc1c(F)c(F)cc(F)c1F,THP-1 cells expressing FKBP-caspase-4,"pyroptosis, inhibitor","concentration not given, with: B/B dimerizer",,LDH release,16.5% and 13.8% and 20.3%
Cc1ccc2c(c1)C(=O)[C@]1(O)CCN(c3ccc4nc(C)ccc4c3)C1=N2.Cl,human low-passage GBM lines,"Western blot, item: γH2AX",concentration not given,,protein level,increased
CCc1c2c(nc3ccc(O)cc13)-c1cc3c(c(=O)n1C2)COC(=O)[C@]3(O)CC,HD-MB03,,"concentration not given, with: ribociclib NG",relative to: ribociclib over DMSO,fold change in IC50,2.17
C[C@H](Nc1ccc2c(c1)OCCn1cc(N3C(=O)OC[C@H]3C(F)F)nc1-2)C(N)=O,NCI-H596,"cell growth, CellTiter-Glo",120 h,,Hill coefficient GR curve,0.538
O=C(/C=C/C=C/C=C/C1CCCCC1)NC1=C[C@@](O)(/C=C/C=C/C=C/C(=O)NC2=C(O)CCC2=O)[C@@H]2O[C@@H]2C1=O,hs852t,"cell growth, inhibitor, CellTiter-Glo luminescence",78 h,relative to: day 0 cell count,GI50,17200 nM
COc1ccc2c(c1)[C@]1(C[C@H]1c1ccc3c(/C=C/c4ccc(CN5C[C@@H](C)O[C@@H](C)C5)cc4)n[nH]c3c1)C(=O)N2,HD-MB03,cell growth,"168 h, DMSO",,IC50,12.8 nM
Nc1cccc2c1CN(C1CCC(=O)NC1=O)C2=O (centres unmarked),bone marrow CD138+ myeloma cells,XTT,"1.2 µM, phenol red-free RPMI",,viability,77%
COC(=O)C1CCN(C(=O)c2cccc(NCc3cnc4nc(N)nc(N)c4n3)c2)CC1,786-O,"high-content imaging, item: MitoTracker Red uptake",10 µM,,mitochondrial toxicity,10.1 ± 12.3%
CCCCc1oc2ccc(NS(C)(=O)=O)cc2c1C(=O)c1ccc(OCCCN(CCCC)CCCC)cc1,human embryonic stem cell aggregates,"mRNA level, microarray, item: SNAI1","0.5 µM, 120 h","relative to: untreated, down-regulated",fold change,2.3 fold
O=C1c2ccncc2C(=O)c2c1[nH]c1ccccc21,"pulmonary arterial smooth muscle cells, PAH patient",no effect,concentration not given,,Mfn1 and Mfn2 protein levels,no effect
Cn1cc(-c2ccc(-c3cncc(Cl)c3N3CCC4(CCNC4=O)CC3)cc2)cn1,COLO 205,"microarray, item: E2F1","concentration not given, 2 h",relative to: untreated cells,fold change in expression,-2.06
CC/C(=N\NC(=O)NCc1cccc(O)c1)c1ccc(O)c(C)c1O,SK-OV-3,Western blot,"10 µM, 6 h, 3D gellan gum culture, unit not given",relative to: DMSO,LATS band intensity,1 ± 0.58
Cc1cnc(NC2CCOCC2)nc1-n1cnc(C(=O)NC(CN)c2cc(F)cc(Cl)c2)c1 (centres unmarked),A-375,flow cytometry,"1 µM, 48 h",,sub-G0 cells,0%
COc1cc(/C=C/C(=O)N2CCC=CC2=O)cc(OC)c1OC,MDA-MB-468,"quantitative RT-PCR, item: Caspase6","30 µM, 8 h",relative to: untreated,mRNA level,82.1 ± 1.6%
Cc1cc(NS(=O)(=O)c2ccc(NC(=O)/C(C#N)=C/c3ccc(N4CCCCC4)cc3)cc2)no1,HCT-116,"ELISA, item: caspase-3","IC50, 48 h",,protein level,4.75 ng/mg
N[C@@H](C(=O)N[C@@H]1C(=O)N2C(C(=O)O)=C(Cl)CS[C@H]12)c1ccccc1,primary rat hippocampal/cortical neuron-glia cultures,,"1 µM, with: 1 µM α-synuclein oligomers",,reversal of trafficking deficit,17.9%
O=C(NOC[C@H](O)CO)c1ccc(F)c(F)c1Nc1ccc(I)cc1F,A-375,,"0.03906 µM, 72 h",,viability,91.4%
Nc1cccc2c1C(=O)N(C1CCC(=O)NC1=O)C2=O (centres unmarked),MM1.S,XTT,1.8 µM,,viability,18% and 16% and 31%
C=Cc1c2[n-]c(c1C)/C=c1\[n-]/c(c(C)c1C=C)=C\c1[n-]c(c(CCC(=O)O)c1C)/C=c1\[n-]c(c(C)c1CCC(=O)O)=C2.[Sn+4],SH-SY5Y,"RNA-seq, item: FAM83G mRNA","5 µM, 5 h",relative to: untreated cells,fold change,1.78
CC(C)n1nc(-c2ccc3oc(N)nc3c2)c2c(N)ncnc21,HD-MB03,cell growth,"168 h, single agent",,IC50,28.8 nM
Nc1cccc2c1C(=O)N([C@@H]1CCCNC1)C2=O,RAW 264.7,item: IL-6,"30 µM, with: LPS",,inhibition,40%
COc1cnc2cccc(N3CCc4c(cc(Cn5ccnc5C)cc4-c4cn(C)nc4C(F)(F)F)C3=O)c2c1,Toledo,cell growth,120 h,,EC50,23.4 nM
CC(C)NCC(O)c1ccc(O)c(O)c1 (centres unmarked),mouse ventricular cardiomyocytes,,"dose not given, 0.407 s",,sarcomere length,1.79 µm
CC(=O)c1nn(-c2ccc(Cl)cc2)/c(=N/N=C(\C)c2ccc(NC(=O)c3ccc(C)cc3)cc2)s1,MCF7,,0.312 µM,,toxicity,40.2%
CCn1cc(-c2cc(Cn3ccnc3)cc3c2CCN([C@H](c2cc(OC)ccn2)C2CC2)C3=O)c(C(F)(F)F)n1,NCI-H661,"cell growth, inhibitor",120 h,,EC50,> 30000 nM
Cc1sc2c(c1C)C(c1ccc(Cl)cc1)=N[C@@H](CC(=O)NCCCCCCCCNC(=O)COc1cccc3c1C(=O)N(C1CCC(=O)NC1=O)C3=O)c1nnc(C)n1-2 (some centres unmarked),RAW264.7,"macrophage polarization, flow cytometry","0.25 µg/mL, 24 h, with: IL-4 20 ng/mL pretreatment",,CD86+ cells,1.23% and 1.42% and 1.5%
Sc1ncnc2nc[nH]c12,HL-60,radioactive counts,"0.5 µM, 14C-labelled compound",higher = more incorporation,DNA radioactivity,94.3 a.u.
Cc1cc(Nc2ncc(Cl)c(Nc3ccccc3S(=O)(=O)C(C)C)n2)c(OC(C)C)cc1C1CCNCC1,NCI-H3122 (EML4-ALK variant 1),cell viability,,,Emax,78.1%
O=C(C[C@@H](C(F)F)n1ccc(F)n1)N1CCC(O)(Cn2cnc3c(cnn3-c3ccc(F)cc3)c2=O)CC1,CHP-212 parental (wild-type USP7),annexin V-PI flow cytometry,"1 µM, 48 h",,viable cells (annexin V-/PI-),63.6% and 57.9% and 64.2%
Clc1nc(NCc2ccco2)c2[nH]cnc2n1,FD iPSC-derived cardiomyocytes,"alternative splicing, RNA-seq, item: FANCL exon chr2(-):58163028-58163074",unit not given,relative to: DMSO minus compound,ΔPSI,-0.387
O=C(O)CCNC(=O)c1ccc(/N=N/c2ccc(O)c(C(=O)O)c2)cc1,primary rat hippocampal/cortical neuron-glia cultures,,"1 µM, with: 1 µM α-synuclein oligomers",,reversal of trafficking deficit,-18.5%
CCn1cc(-c2cc(Cn3ccoc3=N)cc3c2CCN([C@@H](C)c2cc(OC)ccn2)C3=O)c(C(F)(F)F)n1,RKO,"cell growth, inhibitor",120 h,,EC50,> 30000 nM
O=C(O)c1ccc2c(c1)nc(Nc1cccc(Cl)c1)c1ccncc12,HD-MB03,,"concentration not given, with: ribociclib NG",relative to: ribociclib over DMSO,fold change in IC50,0.709
NNc1nc(-c2ccc(Cl)cc2)c2c(NC(=O)c3ccccc3)nnc-2[nH]1,A549/ATCC,NCI60 SRB,10 µM,,growth percent,102%

# A few entries again:
Compound,cell line,test,conditions,how to read,endpoint,result
CCCCc1oc2ccc(NS(C)(=O)=O)cc2c1C(=O)c1ccc(OCCCN(CCCC)CCCC)cc1,human embryonic stem cell aggregates,"mRNA level, microarray, item: SNAI1","0.5 µM, 120 h","relative to: untreated, down-regulated",fold change,2.3 fold
O=C1c2ccncc2C(=O)c2c1[nH]c1ccccc21,"pulmonary arterial smooth muscle cells, PAH patient",no effect,concentration not given,,Mfn1 and Mfn2 protein levels,no effect
Cn1cc(-c2ccc(-c3cncc(Cl)c3N3CCC4(CCNC4=O)CC3)cc2)cn1,COLO 205,"microarray, item: E2F1","concentration not given, 2 h",relative to: untreated cells,fold change in expression,-2.06
